Results pooled from the literature.
A part holds a random share of what one study measured.
UniProt Q14164, sequence (whole entry, looked up): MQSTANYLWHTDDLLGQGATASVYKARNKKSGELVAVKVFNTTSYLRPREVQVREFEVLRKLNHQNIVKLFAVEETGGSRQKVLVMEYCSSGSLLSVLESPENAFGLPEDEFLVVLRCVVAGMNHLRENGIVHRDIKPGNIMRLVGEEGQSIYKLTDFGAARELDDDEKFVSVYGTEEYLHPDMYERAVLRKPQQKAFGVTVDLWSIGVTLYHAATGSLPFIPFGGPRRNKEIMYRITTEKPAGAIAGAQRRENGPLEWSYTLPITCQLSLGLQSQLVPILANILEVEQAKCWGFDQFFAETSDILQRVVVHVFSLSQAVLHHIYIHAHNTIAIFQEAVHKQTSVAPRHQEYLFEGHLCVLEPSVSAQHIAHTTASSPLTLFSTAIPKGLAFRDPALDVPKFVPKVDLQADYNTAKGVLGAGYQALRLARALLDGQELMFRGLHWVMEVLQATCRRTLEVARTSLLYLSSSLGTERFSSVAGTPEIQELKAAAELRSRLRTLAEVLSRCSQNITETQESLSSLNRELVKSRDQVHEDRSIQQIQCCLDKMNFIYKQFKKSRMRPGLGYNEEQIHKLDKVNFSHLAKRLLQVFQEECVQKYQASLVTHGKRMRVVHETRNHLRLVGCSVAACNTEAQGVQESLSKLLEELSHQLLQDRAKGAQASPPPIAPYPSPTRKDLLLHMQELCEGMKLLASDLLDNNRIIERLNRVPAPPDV
UniProt Q13557, sequence (whole entry, looked up): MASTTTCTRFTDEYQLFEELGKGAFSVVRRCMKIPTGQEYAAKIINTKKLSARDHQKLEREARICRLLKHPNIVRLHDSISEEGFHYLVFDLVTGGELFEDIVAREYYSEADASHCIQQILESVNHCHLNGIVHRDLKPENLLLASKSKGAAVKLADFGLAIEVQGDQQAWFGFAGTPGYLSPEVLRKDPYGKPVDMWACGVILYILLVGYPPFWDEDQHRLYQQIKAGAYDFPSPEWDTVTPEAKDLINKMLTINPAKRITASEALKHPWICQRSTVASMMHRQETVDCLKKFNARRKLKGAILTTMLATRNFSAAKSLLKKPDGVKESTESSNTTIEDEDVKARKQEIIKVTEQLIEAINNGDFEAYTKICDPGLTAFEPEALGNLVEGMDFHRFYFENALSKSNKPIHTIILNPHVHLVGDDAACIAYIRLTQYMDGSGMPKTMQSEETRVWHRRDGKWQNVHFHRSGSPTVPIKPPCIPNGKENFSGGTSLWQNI
UniProt P05771, sequence (whole entry, looked up): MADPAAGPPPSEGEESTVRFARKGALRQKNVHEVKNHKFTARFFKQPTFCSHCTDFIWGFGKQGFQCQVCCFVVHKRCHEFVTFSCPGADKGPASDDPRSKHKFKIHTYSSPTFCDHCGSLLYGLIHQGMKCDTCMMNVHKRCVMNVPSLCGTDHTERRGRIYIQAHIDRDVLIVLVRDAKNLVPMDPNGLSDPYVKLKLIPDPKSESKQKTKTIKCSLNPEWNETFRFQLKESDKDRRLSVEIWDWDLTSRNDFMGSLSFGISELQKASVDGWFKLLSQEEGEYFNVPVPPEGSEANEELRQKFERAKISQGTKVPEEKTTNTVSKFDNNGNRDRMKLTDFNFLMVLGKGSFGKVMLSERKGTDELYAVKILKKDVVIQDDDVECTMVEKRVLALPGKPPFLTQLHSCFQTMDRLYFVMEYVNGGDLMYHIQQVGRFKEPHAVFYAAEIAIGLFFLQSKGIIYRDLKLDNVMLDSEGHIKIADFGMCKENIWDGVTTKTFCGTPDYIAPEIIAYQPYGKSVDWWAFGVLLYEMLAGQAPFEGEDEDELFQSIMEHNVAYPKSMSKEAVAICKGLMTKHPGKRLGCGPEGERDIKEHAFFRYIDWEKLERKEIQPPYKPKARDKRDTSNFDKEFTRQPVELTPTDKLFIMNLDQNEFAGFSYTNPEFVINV
UniProt O96017, sequence (whole entry, looked up): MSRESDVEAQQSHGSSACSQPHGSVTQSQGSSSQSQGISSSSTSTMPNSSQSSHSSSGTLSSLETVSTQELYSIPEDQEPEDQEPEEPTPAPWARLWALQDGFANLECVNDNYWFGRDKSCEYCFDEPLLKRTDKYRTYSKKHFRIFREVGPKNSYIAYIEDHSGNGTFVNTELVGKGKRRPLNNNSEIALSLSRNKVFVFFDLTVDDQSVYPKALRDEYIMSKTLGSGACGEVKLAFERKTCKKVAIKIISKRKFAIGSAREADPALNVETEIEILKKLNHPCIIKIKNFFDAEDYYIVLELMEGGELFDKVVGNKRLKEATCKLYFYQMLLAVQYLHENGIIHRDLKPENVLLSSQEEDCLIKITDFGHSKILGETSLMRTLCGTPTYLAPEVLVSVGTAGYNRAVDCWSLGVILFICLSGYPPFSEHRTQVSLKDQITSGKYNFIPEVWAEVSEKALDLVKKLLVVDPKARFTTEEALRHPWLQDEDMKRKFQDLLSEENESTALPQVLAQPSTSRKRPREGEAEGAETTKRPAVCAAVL
UniProt P47898, sequence (whole entry, looked up): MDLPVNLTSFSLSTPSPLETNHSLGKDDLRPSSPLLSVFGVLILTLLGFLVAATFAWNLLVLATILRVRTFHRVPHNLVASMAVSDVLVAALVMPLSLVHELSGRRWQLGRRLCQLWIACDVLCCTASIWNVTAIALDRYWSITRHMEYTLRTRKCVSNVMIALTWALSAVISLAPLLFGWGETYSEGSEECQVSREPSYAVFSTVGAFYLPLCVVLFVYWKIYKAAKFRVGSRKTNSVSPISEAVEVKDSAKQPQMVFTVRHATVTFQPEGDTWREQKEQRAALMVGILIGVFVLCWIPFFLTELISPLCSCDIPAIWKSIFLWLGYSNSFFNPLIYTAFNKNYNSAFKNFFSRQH
UniProt P37173, sequence (whole entry, looked up): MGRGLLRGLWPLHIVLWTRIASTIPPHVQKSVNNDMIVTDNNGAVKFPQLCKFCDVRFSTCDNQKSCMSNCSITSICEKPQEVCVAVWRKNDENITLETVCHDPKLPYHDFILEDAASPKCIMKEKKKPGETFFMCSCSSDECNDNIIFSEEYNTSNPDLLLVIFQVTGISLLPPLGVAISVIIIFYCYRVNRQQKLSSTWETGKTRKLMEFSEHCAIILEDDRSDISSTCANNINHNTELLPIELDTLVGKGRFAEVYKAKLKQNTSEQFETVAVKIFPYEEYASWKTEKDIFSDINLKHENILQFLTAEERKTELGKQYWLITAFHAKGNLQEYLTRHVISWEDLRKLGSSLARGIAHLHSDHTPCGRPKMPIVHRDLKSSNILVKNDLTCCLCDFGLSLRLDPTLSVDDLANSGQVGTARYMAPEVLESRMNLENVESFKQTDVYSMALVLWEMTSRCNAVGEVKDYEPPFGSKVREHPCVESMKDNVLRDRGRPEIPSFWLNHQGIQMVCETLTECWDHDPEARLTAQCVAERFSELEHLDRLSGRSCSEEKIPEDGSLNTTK

Set 1
Target: Histone acetyltransferase KAT6A, winged helix 2, GST fusion (KAT6A, Homo sapiens, UniProt Q92794, residues 85-181)
Technique: protein binding microarray
Form: double-stranded DNA, one strand shown
Sample: in vitro
Tested at: not given
Notes: 8-mer, flanks averaged, mean of 2 arrays, mostly near background
Relative to: not given
Direction: higher = stronger binding
Target sequence (chain): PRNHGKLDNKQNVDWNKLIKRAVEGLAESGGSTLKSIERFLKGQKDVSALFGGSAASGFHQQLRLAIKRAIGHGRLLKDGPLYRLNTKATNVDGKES
The E-score of `ATCAGAAC` is reported as 0.133.
The E-score of `GAGCGGCC` is reported as 0.0814.
For `AGCGTATA`, the E-score was -0.0489.
With `ATGTTAGA` the E-score was -0.152.
`ACATGCTC` has an E-score of -0.0131.
For `GAGTCCCC`, the E-score was -0.196.
For `CGCGAGCG`, the E-score was 0.137.
With `GTATATAC` the E-score was -0.18.

Set 2
Target: Ras GTPase-activating protein-binding protein 1, C-terminal RGG region (G3BP1, Homo sapiens, UniProt Q13283)
UniProt Q13283, sequence (whole entry, looked up): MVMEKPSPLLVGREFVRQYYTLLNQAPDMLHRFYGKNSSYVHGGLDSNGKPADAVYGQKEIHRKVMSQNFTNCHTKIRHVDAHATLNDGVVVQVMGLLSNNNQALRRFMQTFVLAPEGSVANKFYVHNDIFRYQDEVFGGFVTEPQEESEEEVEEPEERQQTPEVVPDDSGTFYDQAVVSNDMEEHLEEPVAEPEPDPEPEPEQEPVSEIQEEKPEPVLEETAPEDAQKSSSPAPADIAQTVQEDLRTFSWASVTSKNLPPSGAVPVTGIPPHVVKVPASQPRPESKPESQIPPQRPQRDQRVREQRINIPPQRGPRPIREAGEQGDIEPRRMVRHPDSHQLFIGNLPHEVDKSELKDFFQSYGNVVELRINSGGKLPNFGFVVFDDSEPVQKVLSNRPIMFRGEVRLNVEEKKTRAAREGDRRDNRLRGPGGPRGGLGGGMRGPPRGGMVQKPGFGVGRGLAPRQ
Technique: RNA Bind-n-Seq
Form: RNA
Sample: in vitro
Tested at: 1 µM
Notes: whole 134-nt RNA, ends assumed
Added: 150 mM KCl
Relative to: input library
Direction: higher = stronger binding
All sequences stand within: GGGAGUUCUACAGUCCGACGAUC … UGGAAUUCUCGGGUGUCAAGG
`CUGUGCUACACAUCGUAUGUACCGAAUCGGGGUUUUUUUGGGGAAAAAAAGGGGAAAGGGGAAAGUAUUAUGUUACGCCGUUCGGAUCUG` has a log2 enrichment of -0.334.
The log2 enrichment of `CCUCAAGUCCUGUGCUACACAUCGUAUGUACCGAAUCGGGGUGGGUGGGUGGGAAAGUAUUAUGUUACGCCGUUCGGAUCUGCACUUCCA` is reported as 1.22.
`AGUCCUGUGCUACACAUCGUAUGUACCGAAUCGGGGAGGGGUUUGGGGAAAAAGGGGAAAGUAUUAUGUUACGCCGUUCGGAUCUGCACU` has a log2 enrichment of 1.77.
For `CUCAAGUCCUGUGCUACACAUCGUAUGUACCGAAUCGGGCCCGGCCCGGCCCGGAAAGUAUUAUGUUACGCCGUUCGGAUCUGCACUUCC`, the log2 enrichment was -1.53.
The log2 enrichment of `GUCCUGUGCUACACAUCGUAUGUACCGAAUCAAAUUUAAACCCCCAAACCCCCCCAAAAAAGUAUUAUGUUACGCCGUUCGGAUCUGCAC` is reported as -0.801.
`CUCAAGUCCUGUGCUACACAUCGUAUGUACCGAAUCGGUUUGGUUUGGGUUUGGAAAGUAUUAUGUUACGCCGUUCGGAUCUGCACUUCC` has a log2 enrichment of -0.951.
With `GUCCUGUGCUACACAUCGUAUGUACCGAAUCGGGUUUUUGGGUUUUUGGGAAAAAGGGAAAGUAUUAUGUUACGCCGUUCGGAUCUGCAC` the log2 enrichment was -0.67.
`ACCAUGCAGGUGGGCAUCUUUGGGAAGUGGGGCAAGGGGGGGAUAGGGAGGGGGGCAACACUUUGGGAACAGGUGGUCCCAGGUCGUUUC` gave a log2 enrichment of 1.02.

Set 3
Compound: CCCCc1c(-c2ccc(O)cc2)[nH]c2nccnc12
Read-out: enzyme activity
Action: inhibitor
Tested at: 0.5 µM
Relative to: control
For Serine/threonine-protein kinase Chk2 (CHEK2, Homo sapiens, UniProt O96017): remaining activity read 61.1%.
Inhibitor of nuclear factor kappa-B kinase subunit epsilon (IKBKE, Homo sapiens, UniProt Q14164) — remaining activity: 88.3%.
The remaining activity was 87.3% (Calcium/calmodulin-dependent protein kinase type II subunit delta (CAMK2D, Homo sapiens, UniProt Q13557)).
It gave 55% for remaining activity (TGF-beta receptor type-2 (TGFBR2, Homo sapiens, UniProt P37173)).
For Protein kinase C beta type, isoform beta-I (PRKCB, Homo sapiens, UniProt P05771): remaining activity read 95.5%.

Further values, each from its own experiment
The inhibition of `CC(=O)N1CCC(c2ccc(C(=O)NC3=NCCN3)cc2C(F)(F)F)CC1` is reported as -11.5% (5-hydroxytryptamine receptor 5A (HTR5A, Homo sapiens, UniProt P47898); ligand displacement; 10 µM).

Some of these lines once more (set 1):
With `ATGTTAGA` the E-score was -0.152.
The E-score of `GAGCGGCC` is reported as 0.0814.
